Results collected from several papers.
Every numbered part comes from another study and shows a few of its results, in no order.

Set 1
Target: Sal-like protein 4, full length isoform A (SALL4, Homo sapiens, UniProt Q9UJQ4, residues 1-1053)
Sequence of UniProt Q9UJQ4 (whole entry, looked up): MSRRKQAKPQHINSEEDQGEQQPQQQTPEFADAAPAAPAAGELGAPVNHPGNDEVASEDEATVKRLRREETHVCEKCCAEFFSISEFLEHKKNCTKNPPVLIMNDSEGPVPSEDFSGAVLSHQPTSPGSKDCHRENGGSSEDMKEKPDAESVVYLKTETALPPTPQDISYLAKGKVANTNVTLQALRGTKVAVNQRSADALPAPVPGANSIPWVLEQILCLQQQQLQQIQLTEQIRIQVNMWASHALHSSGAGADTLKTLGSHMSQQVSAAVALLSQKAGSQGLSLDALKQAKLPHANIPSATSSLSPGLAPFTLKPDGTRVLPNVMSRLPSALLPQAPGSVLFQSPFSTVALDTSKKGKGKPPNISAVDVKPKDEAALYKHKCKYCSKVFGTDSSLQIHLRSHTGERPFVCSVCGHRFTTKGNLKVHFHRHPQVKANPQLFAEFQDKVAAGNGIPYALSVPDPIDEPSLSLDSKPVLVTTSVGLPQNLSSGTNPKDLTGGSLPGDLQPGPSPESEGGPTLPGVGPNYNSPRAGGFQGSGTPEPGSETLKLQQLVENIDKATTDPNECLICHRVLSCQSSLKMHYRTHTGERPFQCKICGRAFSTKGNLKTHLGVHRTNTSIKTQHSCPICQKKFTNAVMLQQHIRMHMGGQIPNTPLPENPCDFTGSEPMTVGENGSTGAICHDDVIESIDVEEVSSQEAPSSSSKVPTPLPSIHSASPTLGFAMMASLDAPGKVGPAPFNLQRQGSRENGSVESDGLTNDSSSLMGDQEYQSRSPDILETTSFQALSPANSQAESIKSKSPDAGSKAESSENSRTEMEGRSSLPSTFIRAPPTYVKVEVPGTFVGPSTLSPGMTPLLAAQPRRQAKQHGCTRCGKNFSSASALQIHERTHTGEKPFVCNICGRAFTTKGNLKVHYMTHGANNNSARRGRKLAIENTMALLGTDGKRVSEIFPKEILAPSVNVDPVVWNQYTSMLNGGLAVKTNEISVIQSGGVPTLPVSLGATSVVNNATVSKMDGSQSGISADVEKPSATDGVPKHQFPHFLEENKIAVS
Technique: universal PBM
Molecule type: double-stranded DNA, one strand shown
Sample: in vitro
Tested at: 600 nM
Setting: 8-mer, flanks averaged, mean of replicates
Reading: higher = stronger binding
Strand | E-score
CGGGAAAA | -0.0791
CTGAACCA | -0.109
GTGACCAA | 0.13
ATGGTGTG | 0.0513
AATGCTGA | 0.028
TCCGCTAA | -0.138
CCGATAGC | -0.191
AGTACTTG | 0.187

Set 2
Target: Prothrombin, mature alpha-thrombin (F2, Homo sapiens, UniProt P00734)
Technique: aptamer microarray, sandwich
Molecule type: DNA with 2'F-ANA
Sample: in vitro
Tested at: 200 nM
Setting: whole 15-mer aptamer, many near background
Added: Cy3 exosite-II aptamer, 400 nM
Reading: higher = stronger binding
Strand: GGTTGGTGTGGTTGG
Modification | mean fluorescence intensity [a.u.]
2'F-ANA at 1 5 6 7 10 11 14 | 51.3
2'F-ANA at 1 3 9 10 13 15 | 79.2
2'F-ANA at 3 4 8 10 11 12 13 14 15 | 167
2'F-ANA at 1 2 4 9 10 13 15 | 44.9
2'F-ANA at 1 2 8 9 10 14 | 145
2'F-ANA at 2 4 5 6 7 8 10 11 14 15 | 50.2
2'F-ANA at 2 3 4 5 6 7 8 10 11 15 | 50.6
2'F-ANA at 2 4 7 9 10 12 | 162

Set 3
Target: TAR DNA-binding protein 43, full length, His tag (TARDBP, Homo sapiens, UniProt Q13148, residues 1-414)
Technique: RNA Bind-n-Seq
Molecule type: RNA
Sample: in vitro
Tested at: 20 nM
Setting: 6-mer, flanks averaged, single round
Added: 150 mM LiCl
Reference: input library
Reading: higher = stronger binding
Strand | 6-mer enrichment (R)
AUGACA | 0.875
GUCGAA | 0.912
UAAUGG | 1.02
UCAUGU | 0.999
GAAGCA | 0.9
CACCUA | 0.919
CUCCAA | 0.904
GAGGUG | 1.36

Single results of other studies
Molecule | target | effect on | molecule type | tested at | endpoint | value
GEIGIRNWL | HLA class I histocompatibility antigen, A alpha chain, allele A*26:03 (Homo sapiens, UniProt P04439) | peptide-MHC binding | peptide | concentration not given | binding | inactive

Excerpt of the above (set 3):
Strand | 6-mer enrichment (R)
UAAUGG | 1.02
